Measurements from different studies.
Compare with care: the assays were run in different laboratories. “And” joins repeats or separate records; there may be more than shown. Numbers after ± are the reported error.
ORC4: ORC4 (Saccharomyces cerevisiae, UniProt P54791)
UniProt P54791, sequence (whole entry, looked up): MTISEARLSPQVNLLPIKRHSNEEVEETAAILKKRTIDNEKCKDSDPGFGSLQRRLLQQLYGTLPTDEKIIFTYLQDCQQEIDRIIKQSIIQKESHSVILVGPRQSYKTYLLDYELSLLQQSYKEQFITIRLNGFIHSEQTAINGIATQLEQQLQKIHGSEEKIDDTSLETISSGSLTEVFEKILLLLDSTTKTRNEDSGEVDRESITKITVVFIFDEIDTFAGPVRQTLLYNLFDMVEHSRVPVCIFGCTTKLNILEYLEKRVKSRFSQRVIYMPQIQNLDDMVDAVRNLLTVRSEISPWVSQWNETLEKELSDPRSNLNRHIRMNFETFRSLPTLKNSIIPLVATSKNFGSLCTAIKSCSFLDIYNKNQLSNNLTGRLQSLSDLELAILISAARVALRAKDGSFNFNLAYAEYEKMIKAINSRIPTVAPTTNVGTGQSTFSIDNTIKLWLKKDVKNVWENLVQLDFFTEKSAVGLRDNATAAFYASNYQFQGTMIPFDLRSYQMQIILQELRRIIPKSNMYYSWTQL
B1: AAGAB 2-177 (Homo sapiens, UniProt Q6PD74); sequence looked up; chain AAGVPCALVTSCSSVFSGDQLVQHILGTEDLIVEVTSNDAVRFYPWTIDNKYYSADINLCVVPNKFLVTAEIAESVQAFVVYFDSTQKSGLDSVSSWLPLAKAWLPEVMILVCDRVSEDGINRQKAQEWCIKHGFELVELSPEELPEEDDDFPESTGVKRIVQALNANVWSNVVMK
B2: GIGYF1 33-103 E44A/E45F/Q87A (Homo sapiens, UniProt O75420); chain KYKLADYRYGRAFMLALYVKENKVPEELQDKEFAAVLQDEPLQPLALEPLTEEEARNFSLSVNSVAVLRLM
B3: CYB5R4 (Homo sapiens, UniProt Q7L1T6); chain MLNVPSQSFPAPRSQQRVASGGRSKVPLKQGRSLMDWIRLTKSGKDLTGLKGRLIEVTEEELKKHNKKDDCWICIRGFVYNVSPYMEYHPGGEDELMRAAGSDGTELFDQVHRWVNYESMLKECLVGRMAIKPAVLKDYREEEKKVLNGMLPKSQVTDTLAKEGPSYPSYDWFQTDSLVTIAIYTKQKDINLDSIIVDHQNDSFRAETIIKDCLYLIHIGLSHEVQEDFSVRVVESVGKIEIVLQKKENTSWDFLGHPLKNHNSLIPRKDTGLYYRKCQLISKEDVTHDTRLFCLMLPPSTHLQVPIGQHVYLKLPITGTEIVKPYTPVSGSLLSEFKEPVLPNNKYIYFLIKIYPTGLFTPELDRLQIGDFVSVSSPEGNFKISKFQELEDLFLLAAGTGFTPMVKILNYALTDIPSLRKVKLMFFNKTEDDIIWRSQLEKLAFKDKRLDVEFVLSAPISEWNGKQGHISPALLSEFLKRNLDKSKVLVCICGPVPFTEQGVRLLHDLNFSKNEIHSFTA
B4: Cacna1c 1647-1777 (Mus musculus, UniProt Q01815); sequence looked up; chain NALSLQAGLRTLHDIGPEIRRAISGDLTAEEELDKAMKEAVSAASEDDIFRRAGGLFGNHVTYYQSDSRGNFPQTFATQRPLHINKTGNNQADTESPSHEKLVDSTFTPSSYSSTGSNANINNANNTALGR
B5: CRYAA G98R/R157Q (Homo sapiens, UniProt P02489); sequence looked up; chain MDVTIQHPWFKRTLGPFYPSRLFDQFFGEGLFEYDLLPFLSSTISPYYRQSLFRTVLDSGISEVRSDRDKFVIFLDVKHFSPEDLTVKVQDDFVEIHRKHNERQDDHGYISREFHRRYRLPSNVDQSALSCSLSADGMLTFCGPKIQTGLDATHAEQAIPVSREEKPTSAPSS
B6: TIMP2 27-153 (Homo sapiens, UniProt P16035); sequence looked up; chain CSCSPVHPQQAFCNADVVIRAKAVSEKEVDSGNDIYGNPIKRIQYEIKQIKMFKGPEKDIEFIYTAPSSAVCGVSLDVGGKKEYLIAGKAEGDGKMHITLCDFIVPWDTLSTTQKKSLNHRYQMGCE
B7: CCL14 28-93 (UniProt Q16627-1); sequence looked up; chain GPYHPSECCFTYTTYKIPRQRIMDYYETNSQCSKPGIVFITKRGHSVCTNPSDKWVQDYIKDMKEN
UniProt Q64663, sequence (whole entry, unmodified, looked up): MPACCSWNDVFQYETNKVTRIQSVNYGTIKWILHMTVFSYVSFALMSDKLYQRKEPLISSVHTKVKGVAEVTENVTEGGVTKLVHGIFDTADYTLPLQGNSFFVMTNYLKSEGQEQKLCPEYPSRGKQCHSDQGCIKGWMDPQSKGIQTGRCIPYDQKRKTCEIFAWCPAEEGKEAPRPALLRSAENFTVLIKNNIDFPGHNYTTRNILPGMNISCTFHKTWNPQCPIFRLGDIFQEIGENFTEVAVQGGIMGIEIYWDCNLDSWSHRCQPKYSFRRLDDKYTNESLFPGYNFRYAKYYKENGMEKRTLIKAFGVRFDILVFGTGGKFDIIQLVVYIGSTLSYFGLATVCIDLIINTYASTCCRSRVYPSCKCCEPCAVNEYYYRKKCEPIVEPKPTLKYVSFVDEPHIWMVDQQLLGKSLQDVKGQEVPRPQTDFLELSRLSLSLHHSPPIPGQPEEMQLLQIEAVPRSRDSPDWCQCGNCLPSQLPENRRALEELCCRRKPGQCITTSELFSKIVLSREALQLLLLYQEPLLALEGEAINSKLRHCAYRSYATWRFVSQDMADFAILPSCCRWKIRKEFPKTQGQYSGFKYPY
UniProt P48067, sequence (whole entry, looked up): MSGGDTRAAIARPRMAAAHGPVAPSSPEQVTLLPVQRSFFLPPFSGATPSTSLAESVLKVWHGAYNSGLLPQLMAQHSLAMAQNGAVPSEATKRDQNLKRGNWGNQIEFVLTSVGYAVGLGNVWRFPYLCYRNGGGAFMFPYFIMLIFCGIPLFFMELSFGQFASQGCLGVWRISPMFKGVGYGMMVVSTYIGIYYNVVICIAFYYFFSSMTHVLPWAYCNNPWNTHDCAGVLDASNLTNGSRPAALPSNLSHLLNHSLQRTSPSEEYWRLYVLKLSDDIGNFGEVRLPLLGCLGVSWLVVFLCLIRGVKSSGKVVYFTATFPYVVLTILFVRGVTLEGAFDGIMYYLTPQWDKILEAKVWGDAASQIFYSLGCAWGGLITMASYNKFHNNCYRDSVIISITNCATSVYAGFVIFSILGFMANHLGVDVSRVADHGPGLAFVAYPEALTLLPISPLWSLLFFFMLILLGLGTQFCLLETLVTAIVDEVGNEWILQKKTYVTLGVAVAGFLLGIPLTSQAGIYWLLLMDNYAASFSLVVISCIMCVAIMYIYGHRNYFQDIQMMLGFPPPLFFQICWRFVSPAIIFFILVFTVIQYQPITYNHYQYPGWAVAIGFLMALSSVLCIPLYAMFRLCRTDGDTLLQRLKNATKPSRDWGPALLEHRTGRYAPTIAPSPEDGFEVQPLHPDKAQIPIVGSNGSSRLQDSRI
UniProt Q01813, sequence (whole entry, looked up): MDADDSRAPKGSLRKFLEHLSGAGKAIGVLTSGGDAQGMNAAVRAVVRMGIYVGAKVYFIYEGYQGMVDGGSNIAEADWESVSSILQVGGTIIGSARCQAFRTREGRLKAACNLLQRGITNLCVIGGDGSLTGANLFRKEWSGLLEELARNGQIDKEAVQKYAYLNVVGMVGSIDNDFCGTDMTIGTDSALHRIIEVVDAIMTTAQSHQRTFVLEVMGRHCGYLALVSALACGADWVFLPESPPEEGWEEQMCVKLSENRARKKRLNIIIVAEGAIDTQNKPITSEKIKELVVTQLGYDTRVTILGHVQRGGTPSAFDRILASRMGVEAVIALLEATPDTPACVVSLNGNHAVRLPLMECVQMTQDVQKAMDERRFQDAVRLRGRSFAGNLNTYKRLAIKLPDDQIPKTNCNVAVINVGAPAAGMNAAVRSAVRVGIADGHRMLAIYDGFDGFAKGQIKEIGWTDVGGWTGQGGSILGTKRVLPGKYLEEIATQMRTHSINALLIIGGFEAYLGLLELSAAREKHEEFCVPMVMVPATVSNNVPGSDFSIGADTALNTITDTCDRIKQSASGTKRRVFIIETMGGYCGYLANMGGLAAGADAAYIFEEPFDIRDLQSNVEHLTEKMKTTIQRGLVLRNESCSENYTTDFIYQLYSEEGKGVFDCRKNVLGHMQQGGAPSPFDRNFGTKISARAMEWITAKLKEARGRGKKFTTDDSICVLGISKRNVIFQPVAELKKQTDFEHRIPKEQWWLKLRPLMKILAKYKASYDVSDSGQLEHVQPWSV
UniProt Q9SXB6, sequence (whole entry, looked up): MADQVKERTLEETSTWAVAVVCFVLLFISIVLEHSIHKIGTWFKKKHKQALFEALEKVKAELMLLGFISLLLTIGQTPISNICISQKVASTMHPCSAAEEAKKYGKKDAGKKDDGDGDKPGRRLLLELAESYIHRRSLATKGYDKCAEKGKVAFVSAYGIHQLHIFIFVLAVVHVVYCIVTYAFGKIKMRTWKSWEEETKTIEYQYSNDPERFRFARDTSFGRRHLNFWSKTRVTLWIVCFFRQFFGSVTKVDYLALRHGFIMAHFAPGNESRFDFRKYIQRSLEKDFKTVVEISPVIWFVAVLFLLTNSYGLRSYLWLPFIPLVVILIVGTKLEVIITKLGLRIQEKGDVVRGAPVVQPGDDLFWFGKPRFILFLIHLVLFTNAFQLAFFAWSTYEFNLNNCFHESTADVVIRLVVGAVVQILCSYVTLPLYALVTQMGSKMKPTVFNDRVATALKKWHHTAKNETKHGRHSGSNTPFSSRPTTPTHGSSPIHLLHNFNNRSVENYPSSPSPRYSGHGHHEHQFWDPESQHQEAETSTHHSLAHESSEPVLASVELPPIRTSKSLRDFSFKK
UniProt P48735, sequence (whole entry, looked up): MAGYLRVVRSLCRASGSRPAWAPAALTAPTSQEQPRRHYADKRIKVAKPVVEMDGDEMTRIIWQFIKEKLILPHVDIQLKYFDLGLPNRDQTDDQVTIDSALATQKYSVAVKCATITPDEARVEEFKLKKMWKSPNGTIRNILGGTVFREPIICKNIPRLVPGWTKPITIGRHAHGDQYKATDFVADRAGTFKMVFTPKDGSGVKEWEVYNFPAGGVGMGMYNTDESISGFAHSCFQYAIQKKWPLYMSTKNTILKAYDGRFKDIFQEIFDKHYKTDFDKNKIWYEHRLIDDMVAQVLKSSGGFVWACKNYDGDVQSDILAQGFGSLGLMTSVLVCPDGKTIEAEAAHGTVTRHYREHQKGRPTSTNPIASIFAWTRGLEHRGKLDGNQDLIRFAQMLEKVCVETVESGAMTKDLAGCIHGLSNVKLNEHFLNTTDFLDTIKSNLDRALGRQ
UniProt P32246, sequence (whole entry, looked up): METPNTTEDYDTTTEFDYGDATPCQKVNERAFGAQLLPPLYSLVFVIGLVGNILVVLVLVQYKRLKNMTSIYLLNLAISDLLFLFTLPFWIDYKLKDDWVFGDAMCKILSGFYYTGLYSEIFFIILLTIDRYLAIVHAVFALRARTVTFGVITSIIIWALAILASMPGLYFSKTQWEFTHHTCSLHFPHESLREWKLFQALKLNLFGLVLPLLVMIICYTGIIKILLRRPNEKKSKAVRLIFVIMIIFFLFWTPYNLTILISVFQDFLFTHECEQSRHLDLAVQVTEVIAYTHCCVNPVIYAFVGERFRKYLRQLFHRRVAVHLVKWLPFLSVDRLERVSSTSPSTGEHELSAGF
UniProt Q99062, sequence (whole entry, looked up): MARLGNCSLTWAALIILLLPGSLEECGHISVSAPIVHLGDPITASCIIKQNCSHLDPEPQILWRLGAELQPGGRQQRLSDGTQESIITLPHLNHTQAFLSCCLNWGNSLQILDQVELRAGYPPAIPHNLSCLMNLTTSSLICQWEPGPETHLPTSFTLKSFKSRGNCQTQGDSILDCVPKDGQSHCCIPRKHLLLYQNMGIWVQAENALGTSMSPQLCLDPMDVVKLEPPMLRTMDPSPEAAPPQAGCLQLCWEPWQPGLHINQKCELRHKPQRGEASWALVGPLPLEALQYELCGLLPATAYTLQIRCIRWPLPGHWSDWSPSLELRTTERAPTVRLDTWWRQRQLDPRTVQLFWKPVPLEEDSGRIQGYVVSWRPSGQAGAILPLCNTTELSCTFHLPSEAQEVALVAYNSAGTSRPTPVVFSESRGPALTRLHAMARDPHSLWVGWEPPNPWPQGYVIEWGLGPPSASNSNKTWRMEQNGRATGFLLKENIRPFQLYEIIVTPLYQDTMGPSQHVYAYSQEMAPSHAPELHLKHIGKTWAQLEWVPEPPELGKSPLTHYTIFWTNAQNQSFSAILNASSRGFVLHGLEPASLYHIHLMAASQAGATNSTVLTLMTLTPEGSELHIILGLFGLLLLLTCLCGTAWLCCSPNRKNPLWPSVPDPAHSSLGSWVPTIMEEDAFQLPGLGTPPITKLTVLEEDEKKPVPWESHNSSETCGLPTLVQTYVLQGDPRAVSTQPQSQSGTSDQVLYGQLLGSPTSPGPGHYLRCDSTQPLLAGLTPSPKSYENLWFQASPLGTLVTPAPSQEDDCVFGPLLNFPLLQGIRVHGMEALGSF
UniProt Q9NPG2, sequence (whole entry, looked up): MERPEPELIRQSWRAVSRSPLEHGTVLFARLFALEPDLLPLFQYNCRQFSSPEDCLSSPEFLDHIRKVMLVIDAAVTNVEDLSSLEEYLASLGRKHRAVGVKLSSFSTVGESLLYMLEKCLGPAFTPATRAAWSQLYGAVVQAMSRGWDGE

Molecule	tested on	assay	system	setting	scale	measurement	value
TARS1 (Homo sapiens, UniProt P26639)	Hemoglobin subunit alpha (Homo sapiens, UniProt P69905)	cross-linking MS	–	added: DSSO or DMTMM	–	cross-linked residues	D421 to K41
B1 (AAGAB 2-177)	AP1S3 (Homo sapiens, UniProt Q96PC3-1)	SEC	–	–	–	subunits per oligomer	1
B2 (GIGYF1 33-103 E44A/E45F/Q87A)	EIF4E2 52-234 Q159S/M161D/R202E (Homo sapiens, UniProt O60573-1)	ITC	peptide	–	–	molecule per partner	1.01 ± 0.01
PFKM (Homo sapiens, UniProt P08237)	PFKP (Homo sapiens, UniProt Q01813)	cross-linking MS	cells	added: iqPIR	–	cross-linked residues	K727 to K736
VMRLQSETSV	human MAGI1-3/6 PDZ construct (MBP fusion)	surface plasmon resonance	peptide	concentration not given	higher = stronger binding	normalised SPR binding response	0 normalised RU
methyl-β-cyclodextrin	Sodium- and chloride-dependent glycine transporter 1 (SLC6A9, Homo sapiens, UniProt P48067)	transport activity, [3H]glycine uptake	–	3.5 mg/mL, 1 min, added: glycine 300 µM	higher = more transport	glycine uptake rate	47.9 a.u. and 58.3 a.u. and 42.8 a.u. and 56.7 a.u.
ORC2 (Saccharomyces cerevisiae, UniProt P32833)	ORC4	cross-linking MS	–	hits only	–	interaction screen	cross-linked
BzATP	P2X purinoceptor 7 (P2rx7, Rattus norvegicus, UniProt Q64663, I214A/R125A)	ion current, agonist, two-electrode voltage clamp	Xenopus laevis oocytes	33 µM	reference: highest concentration response	normalized current	0.71 and 0.81 and 0.82
DYNLRB1/DYNLL1/DYNLT1/DYNC1LI2/DYNC1I2/DYNC1H1 dynein-1 complex (Homo sapiens)	BICD2/NINL chimera BicD2 CC, NINL LIC-BD 1-98, HaloTag, JF646 label	pull-down	–	–	–	Ka	> 1.6e+06 M⁻¹
APOA2 (Homo sapiens, UniProt P02652)	APOC1 (Homo sapiens, UniProt P02654)	cross-linking MS	–	added: DSSO	–	cross-linked residues	K53 to K56
PDE4D3/GFP (Homo sapiens)	AKAP6 P1400S (Homo sapiens, UniProt Q13023-1)	co-IP	HEK293	not purified, added: forskolin, IBMX	reference: mAKAP precipitated, higher = more PDE4D3 bound	relative binding	4.01
NSE5 (Saccharomyces cerevisiae, UniProt Q03718)	NSE3 (Saccharomyces cerevisiae, UniProt Q05541)	cross-linking MS	–	hits only	–	interaction screen	cross-linked
pegfilgrastim, PEGylated, about 39 kDa (Homo sapiens, UniProt P09919-2)	CSF3R (Homo sapiens, UniProt Q99062)	STAT3-driven luciferase reporter induction, agonist	293-CSF3R	1.5 h, 50 °C, heat-degraded sample, diluted in DMEM	–	EC50	0.00179 mg/L
GLP-1/MC4 receptor agonist chimeric peptide, D-Ser position 2	Gipr (Rattus norvegicus, UniProt P43219)	cAMP, agonist	HEK293	FRET biosensor, stably transfected	–	EC50	0.319 µM
CREBBP KIX domain (Homo sapiens, UniProt Q92793)	KMT2A fragment, C-terminal Tyr (Homo sapiens)	competition with ligand, competitive fluorescence polarization	–	–	–	IC50	> 8 µM
GAPDH (Homo sapiens, UniProt P04406)	IDH2 (Homo sapiens, UniProt P48735)	cross-linking MS	cells	added: iqPIR	–	cross-linked residues	K194 to K155
B3 (CYB5R4)	NGB (Homo sapiens, UniProt Q9NPG2)	NO dioxygenation	–	750 nM, 37 °C, wild type, added: NADH 200 µM	–	time	150 s
ALB (Homo sapiens, UniProt P02768)	BRCA2 (Homo sapiens, UniProt P51587)	cross-linking MS	–	added: DSSO	–	cross-linked residues	K219 to K604
PKLPPKTYKREH (SOS1 proline-rich peptide, 1303-1314)	GRB2 156-215 (Homo sapiens, UniProt P62993)	NMR titration	peptide	–	–	chemical shift perturbation	0.46 ppm
CDC6 (Saccharomyces cerevisiae, UniProt P09119)	ORC4	cross-linking MS	–	hits only	–	interaction screen	cross-linked

Molecule	tested on	assay	system	setting	scale	measurement	value
Peginesatide	UT7/EPO	tyrosine phosphorylation, LC-MS/MS phosphoproteomics, GluC, item: SPRY4 tyrosine 52	–	10 nM, 15 min, added: 10 U/mL EPO	reference: vehicle	phosphorylation level	4.6 fold
GSGAGQITKV	human MAGI1-3/6 PDZ construct (MBP fusion)	surface plasmon resonance	peptide	concentration not given	higher = stronger binding	normalised SPR binding response	22.7 normalised RU
CAM2 (Arabidopsis thaliana, UniProt P0DH97)	MLO2 439-573 (Arabidopsis thaliana, UniProt Q9SXB6)	split luciferase complementation	–	–	higher = stronger interaction	luciferase activity	46000 units/mm^2
B4 (Cacna1c 1647-1777)	Jph2 1-440 S165I (Mus musculus, UniProt Q9ET78)	ITC	–	–	–	Kd	13.8 µM
11-deoxycorticosterone	CYP11B2 (human)	substrate binding, stopped-flow global kinetic fitting	purified enzyme	3-state induced fit model, added: 40-fold excess adrenodoxin	–	rate constant k-2	3.23 ± 0.354 s⁻¹
KERTHQQKKHSSYEDELSEVL (CHGA residues 70-90 (Bos taurus))	PLAT mature, single-chain, DFP-inactivated (Homo sapiens)	radioligand binding	peptide	added: 100 µM peptide	reference: 125I-CgA binding without inhibitor, higher = stronger inhibition	inhibition of binding	82%
GCVRLHESCLGQQVPCCDPAATCYCYGRGDNDLRCYCR (designed binder)	ITGAV/ITGB3 U87MG cells (Homo sapiens)	competition, flow cytometry	designed binder, U87MG	–	–	IC50	0.023 ± 0.006 µM
NGVTKTIAEPRARVEKDYGK (gld-3 860-879 L867A (Caenorhabditis elegans, UniProt Q95ZK7); sequence looked up)	fbf-2 164-575 (Caenorhabditis elegans, UniProt Q09312)	competition with ligand, fluorescence polarisation	peptide	–	–	IC50	> 1200 µM
MYO1B (Homo sapiens, UniProt O43795)	FGA (Homo sapiens, UniProt P02671)	cross-linking MS	–	added: DSSO	–	cross-linked residues	K3 to K620
B5 (CRYAA G98R/R157Q)	ADH1 (Saccharomyces cerevisiae, UniProt P00330)	EDTA-induced ADH aggregation, absorbance, inhibitor	–	250 µg	–	ADH aggregation suppression IC50	25 µg
B6 (TIMP2 27-153)	MMP14 112-292 (Homo sapiens, UniProt P50281)	enzyme activity, inhibitor, fluorogenic peptide cleavage assay	–	–	–	Ki	0.00227 ± 0.00034 µM
FGB (Homo sapiens, UniProt P02675)	BRIP1 (Homo sapiens, UniProt Q9BX63)	cross-linking MS	–	added: DSSO	–	cross-linked residues	K77 to K1235
B7 (CCL14 28-93)	CCR1 (Homo sapiens, UniProt P32246)	competition with ligand, radioligand binding	–	added: 125I-streptavidin CCL3-biotin 400 pM	–	IC50	0.0009 µM
A2M (Homo sapiens, UniProt P01023)	NALCN (Homo sapiens, UniProt Q8IZF0)	cross-linking MS	–	added: DSSO	–	cross-linked residues	K426 to K1491
B6 (TIMP2 27-153)	MMP14 110-300 (Homo sapiens, UniProt P50281)	MMP-14 cleavage of fluorogenic substrate, inhibitor, steady-state kinetics	–	–	–	Ki	0.00053 µM
FGA (Homo sapiens, UniProt P02671)	ME1 (Homo sapiens, UniProt P48163)	cross-linking MS	–	added: DSSO	–	cross-linked residues	K238 to K525
CALLLSAPRR (GOT2 (Gallus gallus); fluorescein label)	HSPA9 mature L450A (Homo sapiens, UniProt P38646)	FP	peptide	–	–	koff	0.026 s⁻¹
FGG (Homo sapiens, UniProt P02679)	PCDH19 (Homo sapiens, UniProt Q8TAB3)	cross-linking MS	–	added: DSSO	–	cross-linked residues	K114 to K86
colistin	Pseudomonas aeruginosa	broth microdilution	clinical isolate RKI 485/15-1	–	–	MIC	1 mg/L

Excerpt of the above:
Molecule	tested on	assay	system	setting	scale	measurement	value
KERTHQQKKHSSYEDELSEVL (CHGA residues 70-90 (Bos taurus))	PLAT mature, single-chain, DFP-inactivated (Homo sapiens)	radioligand binding	peptide	added: 100 µM peptide	reference: 125I-CgA binding without inhibitor, higher = stronger inhibition	inhibition of binding	82%
ORC2 (Saccharomyces cerevisiae, UniProt P32833)	ORC4	cross-linking MS	–	hits only	–	interaction screen	cross-linked
CREBBP KIX domain (Homo sapiens, UniProt Q92793)	KMT2A fragment, C-terminal Tyr (Homo sapiens)	competition with ligand, competitive fluorescence polarization	–	–	–	IC50	> 8 µM
FGG (Homo sapiens, UniProt P02679)	PCDH19 (Homo sapiens, UniProt Q8TAB3)	cross-linking MS	–	added: DSSO	–	cross-linked residues	K114 to K86
FGA (Homo sapiens, UniProt P02671)	ME1 (Homo sapiens, UniProt P48163)	cross-linking MS	–	added: DSSO	–	cross-linked residues	K238 to K525
